Measured values of several laboratories.
Parts stem from different laboratories: compare values within a part only.

Block 1 — method: protein-binding microarray; molecule type: double-stranded DNA, one strand shown; medium: in vitro; tested at: 2540 nM top; notes: 60-bp whole probe; added: salmon DNA 0.4 mg/ml; baseline: random background probes; direction: higher = stronger binding; all sequences stand within: GCCTAGCAC … GTCTTGATTCGCTTGACGCTGCTG
Target: Interferon regulatory factor 3, full length, phosphomimetic (IRF3, Homo sapiens, UniProt Q14653, residues 1-427, S386D/S396D/S398D/S402D/T404D/S405D)
Residues (chain): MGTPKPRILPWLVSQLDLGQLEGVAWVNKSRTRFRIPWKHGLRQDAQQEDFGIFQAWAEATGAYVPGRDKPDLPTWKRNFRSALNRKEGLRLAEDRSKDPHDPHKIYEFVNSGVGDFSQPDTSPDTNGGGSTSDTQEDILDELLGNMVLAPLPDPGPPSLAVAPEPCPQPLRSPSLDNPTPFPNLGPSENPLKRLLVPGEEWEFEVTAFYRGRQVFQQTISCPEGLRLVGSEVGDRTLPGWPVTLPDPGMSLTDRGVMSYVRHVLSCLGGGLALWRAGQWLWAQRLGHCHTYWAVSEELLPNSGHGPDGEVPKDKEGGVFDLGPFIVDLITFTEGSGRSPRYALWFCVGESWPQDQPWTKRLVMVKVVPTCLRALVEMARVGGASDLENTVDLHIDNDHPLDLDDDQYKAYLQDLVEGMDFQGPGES
| Sequence | fitted relative affinity [z-score] |
| --- | --- |
| ATAGGTCTCGGTTTCGGTTAGTGCTAG | 5.74 |
| TCACTAATGTTTTTTAAACTGTGCTAG | 0.271 |
| TTAGGTAGCGGACTGGGTTAGTGCTAG | -0.502 |
| GACGAACTGAGTAGCGAGACGTGCTAG | -0.232 |
| GACGGTATCGGGTTTCGGGAAGTGCTA | 3.23 |
| ATATGTAAGATATCCATATGGTGCTAG | 0.936 |
| TTAGATCTCACTCTCGATTAGTGCTAG | 0.773 |
| TCCCTTATAAATAGCACAGGGTGCTAG | 1 |
| TTAGGTCTCCTCCTGCTTTAGTGCTAG | 0.042 |
| GACGGTATCGGTCTCAGGACGTGCTAG | 4.05 |
| TCATTTCTCTGCTACCCTACTGTGCTA | 2.34 |
| TTAGGTTCCCTCTTCCTTTAGTGCTAG | 5.2 |
| ATTCCTTTGCCTCCAGGCGCGTGCTAG | 1.94 |
| TAAGTTTCACTTTCCAAAGCGTGCTAG | 9.47 |
| AAAAATTAGTGTTTCCCCTAGTGCTAG | 1.1 |
| TGGAGAGCATATTCTGTGACGTGCTAG | -0.476 |
| TTAGGTTTCAACTATCGGTTAGTGCTA | 1.18 |

Block 2 — method: RNA Bind-n-Seq; molecule type: RNA; medium: in vitro; tested at: 1 µM; notes: whole 134-nt RNA, ends assumed; added: 150 mM KCl; baseline: input library; direction: higher = stronger binding
Target: Ras GTPase-activating protein-binding protein 1, RRM domain (G3BP1, Homo sapiens, UniProt Q13283)
Sequence of UniProt Q13283 (whole entry, looked up): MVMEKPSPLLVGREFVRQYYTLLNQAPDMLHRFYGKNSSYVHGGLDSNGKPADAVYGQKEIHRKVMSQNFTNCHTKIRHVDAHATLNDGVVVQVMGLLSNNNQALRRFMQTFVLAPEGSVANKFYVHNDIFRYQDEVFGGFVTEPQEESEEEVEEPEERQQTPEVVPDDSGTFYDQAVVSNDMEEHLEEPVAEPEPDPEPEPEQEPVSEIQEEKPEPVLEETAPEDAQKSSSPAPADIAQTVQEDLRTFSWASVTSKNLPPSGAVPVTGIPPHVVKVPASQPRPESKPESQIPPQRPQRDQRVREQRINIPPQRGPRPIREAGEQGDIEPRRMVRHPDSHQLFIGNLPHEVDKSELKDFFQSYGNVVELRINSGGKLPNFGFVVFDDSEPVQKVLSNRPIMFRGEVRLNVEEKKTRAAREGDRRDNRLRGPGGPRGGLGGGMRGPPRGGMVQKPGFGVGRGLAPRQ
All sequences stand within: GGGAGUUCUACAGUCCGACGAUC … UGGAAUUCUCGGGUGUCAAGG
| Sequence | log2 enrichment |
| --- | --- |
| ACCAUGCAGGUGGGCAUCUUUGGGAAGUGGUGCAAGGGGGGGAUAGGGAGGGGGGUAACACUUUGGGAACAGGUGGUCCCAGGUCGUUUC | -0.515 |
| UGGCCCUGGUGGCAUGCGGGGAGGAAGAGGUGGCCUCAUGGAUCGUGGUGGUCCCGGUGGAAUGUUCAGAGGUGGCCGUGGUGGAGAAAG | 1.47 |
| CCUCAAGUCCUGUGCUACACAUCGUAUGUACCGAAUCGGAGGUUUUUGGAGGAAAGUAUUAUGUUACGCCGUUCGGAUCUGCACUUCCAG | -0.202 |
| AGUCCUGUGCUACACAUCGUAUGUACCGAAUCAAACCCCCAAACCCCCAAACCCAAAAAAGUAUUAUGUUACGCCGUUCGGAUCUGCACU | -0.192 |
| UGGCCCUGGUGGCAUGCGGGGAGGAAGAGGUGGCCUCAUGGAUCGUGGUGCUCCCGGUGGAAUGUUCAGAGGUGGCCGUGGUGGAGACAG | 0.608 |
| CAAGUCCUGUGCUACACAUCGUAUGUACCGAAUCGGUUUUUGGAAAAAAAGGUGGAAAGUAUUAUGUUACGCCGUUCGGAUCUGCACUUC | -0.248 |
| AAGUCCUGUGCUACACAUCGUAUGUACCGAAUCGGGUUUGGGAAAGGGAAAAAGGGAAAGUAUUAUGUUACGCCGUUCGGAUCUGCACUU | 0.65 |
| UCAAGUCCUGUGCUACACAUCGUAUGUACCGAAUCGGGUUGGGGUUGGUUGGGGAAAGUAUUAUGUUACGCCGUUCGGAUCUGCACUUCC | 0.252 |
| AGUCCUGUGCUACACAUCGUAUGUACCGAAUCGGGGAGGGGUUUUUGGGGUUUGGGGAAAGUAUUAUGUUACGCCGUUCGGAUCUGCACU | 0.419 |
| UUUCUGUGUGCUUAGGUGCCCGAGCUACUGAGGGUCUAAGUCCGGGCAGCCGAAGAGUGUGGUAGGUAACGGUCCUCAGCGCAAGGGUCA | 0.0765 |
| CCUCAAGUCCUGUGCUACACAUCGUAUGUACCGAAUCGGGCGGGCGGCGGGGAAAGUAUUAUGUUACGCCGUUCGGAUCUGCACUUCCAG | -0.0276 |
| UCCUGUGCUACACAUCGUAUGUACCGAAUCGGGAAAAAGGGAAAAAAAGGGUUUUUGGGAAAGUAUUAUGUUACGCCGUUCGGAUCUGCA | 0.0803 |
| GUCCUGUGCUACACAUCGUAUGUACCGAAUCAAACCCCCCCAAAUUUUUAAAUUUAAAAAAGUAUUAUGUUACGCCGUUCGGAUCUGCAC | -0.469 |
| CUCAAGUCCUGUGCUACACAUCGUAUGUACCGAAUCGGAAAGGAAAGGUUUGGAAAGUAUUAUGUUACGCCGUUCGGAUCUGCACUUCCA | -0.215 |

Block 3 — method: protein binding microarray; molecule type: double-stranded DNA, one strand shown; medium: in vitro; tested at: not given; baseline: not given; direction: higher = stronger binding
Target: Histone acetyltransferase KAT6A, winged helix 2, GST fusion (KAT6A, Homo sapiens, UniProt Q92794, residues 85-181)
Notes: 8-mer, flanks averaged, mean of 2 arrays, mostly near background
Target sequence (chain): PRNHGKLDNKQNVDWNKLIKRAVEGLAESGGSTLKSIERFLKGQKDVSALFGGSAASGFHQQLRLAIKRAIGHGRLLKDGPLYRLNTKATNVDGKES
| Sequence | E-score |
| --- | --- |
| AGTCATGA | -0.00256 |
| TTGAGAAA | -0.0334 |
| CCCTGGAC | 0.0505 |
| GCTACCAC | 0.00156 |
| AGCTTGAA | -0.109 |
| ACCAGGAG | 0.0649 |
| ATTTACTA | -0.0234 |
| CAATTCCC | 0.103 |
| ACGTGGGC | 0.00536 |
| AGCCTAGC | 0.0574 |
| CTTAGCTA | -0.174 |
| CCGATTCC | 0.0183 |
| CTGGTAAA | -0.127 |
| ATCTCCGA | 0.0334 |
| GACAAGAA | -0.0452 |
| GCCAAAGA | 0.0342 |
| GATACGTA | -0.174 |
| CTTAGACA | -0.0987 |
| GCGTCCCC | 0.0231 |
| GCATGACC | -0.0701 |
| GGATGCGA | -0.0498 |
| CATGTGGC | -0.00867 |
| GTTCGAAA | 0.125 |
| AATAAAAG | -0.0748 |
| ATATTTCG | 0.0938 |

Block 4 — method: RNA Bind-n-Seq; molecule type: RNA; medium: in vitro; tested at: 365 nM; baseline: no-protein control; direction: higher = stronger binding
Target: RNA binding protein fox-1 homolog 2, RRM domain, GST-SBP tag (RBFOX2, Homo sapiens, UniProt O43251-10, residues 100-194)
Notes: natural RNA segment, single round, ends assumed
All sequences stand within: GGGAGUUCUACAGUCCGACGAUC … UGGAAUUCUCGGGUGCCAA
Target sequence (chain): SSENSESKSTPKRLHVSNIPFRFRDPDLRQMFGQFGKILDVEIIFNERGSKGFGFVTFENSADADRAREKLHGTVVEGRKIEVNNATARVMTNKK
| Sequence | RBNS enrichment (R) |
| --- | --- |
| UGCAGUGUAGAGCUAGAUUAAAAGCAACUCUUUGCCACCUACUCUGCCCUUUUGGCAAAGUUACCUUGAACAAAGAAUCUUAAGGGUUUAUUAAGAACUCUUUAUUUUCU | 0.294 |
| CUAGAAUCUUUUUCUGAUUUUUAACUCCAGGAGAGAUAGCAUUUUCCUUACAUUAUAAAAUAAAAGCAGUGAAGUAAAUUGACAGCUAAGGAUCUCUAUUUCAUCUCUUG | 0.528 |
| UUCUGGCCUCUGCCUGGGACAGUAAAGGAUGGAGGAUCAGGCCUGGAGCCCCAGCCCCACCUUAGCCCUGCUGAGGCUCCAUGGCUUCUCCACUUCUUCUCAUGUGACCU | 0.442 |
| CCUACGUGAACCACCUGGGUCUCCCUUAGCAGGUACCCAGCCCUGAGGUGACUGACCACCUAGGGCCCCUGAGAGGCAAAGGGAACCUGCAAAGGGCCUGUCCCCGGGCA | 0.444 |
| UAGACCAUAACUAUACUGCUUUCAUCUGGUUCACCCCCUCUAUGUCAAGAGUCAAACUGUGUGAGAAAAGCCAAAGAUUUUUUUUUGAGUCCUUUUGAAGACAGCUAGCU | 0.469 |
| GUAAUUUCCCAUUAGCAUAAUUUUAUGUUGUACAAGUAAAUUACAAUUCCAUCUCUAAUCUUGGAUAAUACUGGUUGGUUAACAAUAAAGUGACAAAAGCUCCCGCCUUG | 0.496 |
| GAGACCCAGCCGCUGACAGUCCCUGGGGCUUGCCUUCUUUGCCAAGCCAAUGGGAAACCAAAAGGAGCUCACUUCCUGUUCUUCCUAGCUCCCCUCCCUGCCGCUGUGCU | 0.363 |
| CUCUUCUUGCAGCUGCCUGGCCAGGAUCUAUGGCUUAGGAUCUAUGGCCACCCCUGCAGGGGAGCUACAGUGAGGCCUGGGGCUGGAUUCCACCCACAGUCCCUUCCCUG | 0.38 |
| UUUUCCUUGAUUUCUCAGUAGGUGCUAGAGUCCGUUCACACCCUUCACUGUGCGCGCAGACACUGAGGCACGUGGGCUCUGGAACCCGCAGGGUUUGCAGAGAGGCGGCA | 0.601 |
| CAGAUUUAUAAUUUAUUGAAGUUCCCCUUUUAGUGAGACCAACCCAUGUUUUCCUAUUCAUCUUAGUUCAUUUAGGGAUAGUCUGGGUUUCCCAGAAAAUGUGGAGCCAG | 0.352 |
| UAGCUUAUAGCAGACCUUGAGCCUCCUUGGUUACAGCAGGUUGUGGAUAAGUUACAUCGGGCUUCAUCAUCUAUACCUCCAUUUUUUCCUCCAGUUUUUAAUUUACUUUC | 0.691 |
| AUAGAGUGGUAUUUAGAAAAUAAAUUGCAUUGCAAAGCUCUUAUCGGCUCAUAUGAGAGAGCAGGUUCCUGCCCUUGAAAAUGCCGGUAAGCUAUAGCAUAUGUUUUUUA | 0.32 |

Some of these lines once more (block 2):
| Sequence | log2 enrichment |
| --- | --- |
| AAGUCCUGUGCUACACAUCGUAUGUACCGAAUCGGGUUUGGGAAAGGGAAAAAGGGAAAGUAUUAUGUUACGCCGUUCGGAUCUGCACUU | 0.65 |
| UCAAGUCCUGUGCUACACAUCGUAUGUACCGAAUCGGGUUGGGGUUGGUUGGGGAAAGUAUUAUGUUACGCCGUUCGGAUCUGCACUUCC | 0.252 |
| AGUCCUGUGCUACACAUCGUAUGUACCGAAUCGGGGAGGGGUUUUUGGGGUUUGGGGAAAGUAUUAUGUUACGCCGUUCGGAUCUGCACU | 0.419 |
| UUUCUGUGUGCUUAGGUGCCCGAGCUACUGAGGGUCUAAGUCCGGGCAGCCGAAGAGUGUGGUAGGUAACGGUCCUCAGCGCAAGGGUCA | 0.0765 |
| CCUCAAGUCCUGUGCUACACAUCGUAUGUACCGAAUCGGGCGGGCGGCGGGGAAAGUAUUAUGUUACGCCGUUCGGAUCUGCACUUCCAG | -0.0276 |
| UCCUGUGCUACACAUCGUAUGUACCGAAUCGGGAAAAAGGGAAAAAAAGGGUUUUUGGGAAAGUAUUAUGUUACGCCGUUCGGAUCUGCA | 0.0803 |
| GUCCUGUGCUACACAUCGUAUGUACCGAAUCAAACCCCCCCAAAUUUUUAAAUUUAAAAAAGUAUUAUGUUACGCCGUUCGGAUCUGCAC | -0.469 |
| CUCAAGUCCUGUGCUACACAUCGUAUGUACCGAAUCGGAAAGGAAAGGUUUGGAAAGUAUUAUGUUACGCCGUUCGGAUCUGCACUUCCA | -0.215 |
